Results collected from several papers.
Each numbered part is a random draw from the data of one study; scales do not carry over between parts. Several values in a cell are separate wells, animals, samples, runs or records.

Study 1 — cell line: HEK-293T-ACE2; concentration: concentration not given; relative to: vehicle; measurement: cell number
Br.CN1[C@@H]2CC[C@H]1C[C@@H](OC(=O)C(O)c1ccccc1)C2 (stereo partly drawn): 102%
O=C(CCCCCCC(=O)Nc1ccccc1)NO: 86.4%
CCCC(CCC)C(=O)[O-].[Na+]: 101%
Cl.N=C(N)NN: 101%
CN(C)CCC(c1ccc(Br)cc1)c1ccccn1.O=C(O)/C=C\C(=O)O (stereo not drawn): 105%
Cl.N=C(N)N: 99.8%
CN(C)CCc1c[nH]c2ccc(CS(=O)(=O)N3CCCC3)cc12.O=C(O)CC(O)C(=O)O: 96.4%

Study 2 — method: CCK-8; measurement: survival
SMILES: CC(C)S(=O)(=O)c1ccc2nccc(Nc3ccc4sc(C5CCCC5)nc4c3)c2c1.Cl
L929 RIPK3-/- reexpressing RIPK3 K51A; 6.25 µM: 93.3% and 95% and 92.6% and 98.3%
L929 RIPK3-/- reexpressing RIPK3 K51A/R69H; 50 µM: 64.7% and 64.2% and 40.9% and 64%
L929 RIPK3-/- reexpressing RIPK3 K51A/R69H; 25 µM: 95.3% and 69.4% and 61.1% and 73.5%
L929 RIPK3-/- reexpressing RIPK3 K51A/R69H; 3.125 µM: 83.9% and 97.6% and 82.1% and 86.5%
L929 RIPK3-/- reexpressing RIPK3 K51A; 3.125 µM: 91.4% and 98.4% and 99% and 95.8% and 95.1%
L929 RIPK3-/- reexpressing RIPK3 K51A/R69H; 50 µM, with: zVAD: 62.4% and 65.3% and 40.9%
L929 RIPK3-/- reexpressing RIPK3 K51A/R69H; 12.5 µM: 95.7% and 79.6% and 94.3% and 95.3% and 81.2%
L929 RIPK3-/- reexpressing RIPK3 K51A; 50 µM, with: zVAD: 70.7% and 79.2% and 77.1% and 77.3%

Study 3 — observed: binding; method: radioligand binding; concentration: 10 µM; measurement: inhibition
Target: Delta-type opioid receptor (OPRD1, Homo sapiens, UniProt P41143)
Sequence of UniProt P41143 (whole entry, looked up): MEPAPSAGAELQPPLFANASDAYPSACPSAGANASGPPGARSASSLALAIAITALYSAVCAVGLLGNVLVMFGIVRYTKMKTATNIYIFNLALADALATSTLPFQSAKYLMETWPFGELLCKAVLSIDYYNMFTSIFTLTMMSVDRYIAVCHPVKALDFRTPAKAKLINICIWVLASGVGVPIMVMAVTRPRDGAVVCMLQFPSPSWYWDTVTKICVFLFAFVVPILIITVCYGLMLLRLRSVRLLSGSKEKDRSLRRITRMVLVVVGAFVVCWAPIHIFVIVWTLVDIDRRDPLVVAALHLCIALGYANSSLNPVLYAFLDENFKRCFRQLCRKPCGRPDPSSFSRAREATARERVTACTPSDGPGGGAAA
Cc1nc(N2CC[C@@H](O)C2)ncc1-c1cc(C(F)(F)F)cc2[nH]ncc12: -11.4%
CCCOc1ccc([C@H]2[C@H](C(=O)O)[C@@H](c3ccc4c(c3)OCO4)CN2CC(=O)Nc2c(CC)cccc2CC)cc1: 9.89%
Nc1c(C(=O)NCc2ccc(C(=O)NCCCC3CCCCC3)cc2)cnn1-c1ccccc1: 24.1%
O=C([C@H]1C[C@H](O)CN1c1ccc(Cl)cc1)N1CC2COCC(C1)N2Cc1ccc(Cl)cc1: -15%
Cc1nc(Cc2cccc(C(F)(F)F)c2)sc1-c1ccc(C(N)=O)nc1: 4.01%
CC(=O)Nc1nc(CN2CCC[C@H](Cc3cc(C)nc(C)c3)C2)cs1: 8.67%
O=C1CCc2cc(Nc3cc(OC4CCOCC4)c([N+](=O)[O-])cc3Cl)ccc2N1: 3.32%
Cc1nccc(COC(=O)N2C[C@@H]3[C@@H](CNC(=O)c4ccc5[nH]nnc5c4)[C@@H]3C2)n1: -1.41%
COc1cccc(CNC(=O)c2nc3scc(COCc4ccc(C(=O)O)cc4)c3c(=O)[nH]2)c1: -5.04%
CC1=C(C#N)C(c2ccc3c(c2)c(NC(=O)c2ccccc2C)nn3C)C(C#N)=C(C)N1: 17.7%
CC(C)(O)c1cncc(-c2nc3ccc(F)cc3n2C2CC2)c1: -10.9%
CC(=O)N1CCC(c2ccc(C(=O)NC(=N)N)cc2C(F)(F)F)CC1: -5.35%
CNC(=O)Nc1ccc2c(c1)[C@]1(CC2)OC(=O)N(CC(=O)N(Cc2ccc(F)cc2)[C@@H](C)C(F)(F)F)C1=O: -10.6%
COc1nc2ccc([C@@](O)(c3ccccc3)C3CCN(C(C)=O)CC3)cc2c(Cl)c1Cc1ccc(-n2cccn2)cc1: 7.18%
CC(=O)c1c(NS(C)(=O)=O)c2cc(-c3ccc(Cl)cc3)c(-c3ccc(Cl)cc3Cl)nc2n(C)c1=O: 73.6%
CNC(=O)c1cc(C(=O)NC2CC2)cn(Cc2ccccc2)c1=O: -2.78%
CN1C(=O)[C@@H](N2CCc3cn(Cc4ccccc4)nc3C2=O)COc2ccccc21: 28.8%
O=C(Nc1cccnn1)N1CCC(=Cc2cccc(Oc3ccc(C(F)(F)F)cn3)c2)CC1: 12.3%
O=C(NC[C@@H]1[C@H]2CN(C(=O)OCc3cc(C(F)(F)F)cc(C(F)(F)F)c3)C[C@@H]12)c1ccc2[nH]nnc2c1: 19.6%
Cc1c(NC(=O)c2cc(C(N)=O)nc3cc(F)ccc23)c(C(F)(F)F)nn1Cc1ccc(C(C)(C)C)cc1: -9.45%
C[C@@]1(Cc2ccc(C#N)cc2)C(=O)N(c2cc(Cl)cc(Cl)c2)c2ncc(C(=O)NC3(c4nc(C5CCC5)no4)CC3)n21: 8.3%
O=C(O)c1cc(-c2ccc(C3CCNCC3)cc2)c2ccc(-c3ccc(C(F)(F)F)cc3)cc2c1: 36.4%

Study 4 — cell line: HaCaT; concentration: 100 µM; time: 18 h; measurement: viability
CC(C)OC(=O)[C@H](C)N[P@](=O)(CO[C@H](C)Cn1cnc2c(N)ncnc21)Oc1ccccc1: 116%
O=C(CCCN1CCC2(CC1)C(=O)NCN2c1ccccc1)c1ccc(F)cc1: 71.3%
CC(C)c1cccc(C(C)C)c1O: 36.3%
O=C(O)[C@@H]1[C@H](C(=O)O)[C@H]2CC[C@@H]1O2: 108%
Clc1ccc(C(OCCN2CCCCC2)c2ccccc2)cc1 (stereo not drawn): 15.2%
C=C1C[C@@H]2[C@H](CC[C@]3(C)C(=O)CC[C@@H]23)[C@@]2(C)C=CC(=O)C=C12: 69.7%
C[C@]12CCC(=O)C=C1CC[C@@H]1[C@@H]2CC[C@@]2(C)[C@H]1CC[C@]2(C)O: 89%
CCO[C@H]1O[C@@H]2O[C@@]3(C)CC[C@H]4[C@H](C)CC[C@@H]([C@H]1C)[C@@]24OO3: 65.2%

A few entries again (study 2):
L929 RIPK3-/- reexpressing RIPK3 K51A/R69H; 50 µM: 64.7% and 64.2% and 40.9% and 64%
L929 RIPK3-/- reexpressing RIPK3 K51A/R69H; 25 µM: 95.3% and 69.4% and 61.1% and 73.5%
L929 RIPK3-/- reexpressing RIPK3 K51A/R69H; 3.125 µM: 83.9% and 97.6% and 82.1% and 86.5%
L929 RIPK3-/- reexpressing RIPK3 K51A; 3.125 µM: 91.4% and 98.4% and 99% and 95.8% and 95.1%
L929 RIPK3-/- reexpressing RIPK3 K51A/R69H; 50 µM, with: zVAD: 62.4% and 65.3% and 40.9%
L929 RIPK3-/- reexpressing RIPK3 K51A/R69H; 12.5 µM: 95.7% and 79.6% and 94.3% and 95.3% and 81.2%
